Results of several laboratories.
Every numbered part comes from another study and shows a few of its results, in no order.
UniProt O14976, sequence (whole entry, looked up): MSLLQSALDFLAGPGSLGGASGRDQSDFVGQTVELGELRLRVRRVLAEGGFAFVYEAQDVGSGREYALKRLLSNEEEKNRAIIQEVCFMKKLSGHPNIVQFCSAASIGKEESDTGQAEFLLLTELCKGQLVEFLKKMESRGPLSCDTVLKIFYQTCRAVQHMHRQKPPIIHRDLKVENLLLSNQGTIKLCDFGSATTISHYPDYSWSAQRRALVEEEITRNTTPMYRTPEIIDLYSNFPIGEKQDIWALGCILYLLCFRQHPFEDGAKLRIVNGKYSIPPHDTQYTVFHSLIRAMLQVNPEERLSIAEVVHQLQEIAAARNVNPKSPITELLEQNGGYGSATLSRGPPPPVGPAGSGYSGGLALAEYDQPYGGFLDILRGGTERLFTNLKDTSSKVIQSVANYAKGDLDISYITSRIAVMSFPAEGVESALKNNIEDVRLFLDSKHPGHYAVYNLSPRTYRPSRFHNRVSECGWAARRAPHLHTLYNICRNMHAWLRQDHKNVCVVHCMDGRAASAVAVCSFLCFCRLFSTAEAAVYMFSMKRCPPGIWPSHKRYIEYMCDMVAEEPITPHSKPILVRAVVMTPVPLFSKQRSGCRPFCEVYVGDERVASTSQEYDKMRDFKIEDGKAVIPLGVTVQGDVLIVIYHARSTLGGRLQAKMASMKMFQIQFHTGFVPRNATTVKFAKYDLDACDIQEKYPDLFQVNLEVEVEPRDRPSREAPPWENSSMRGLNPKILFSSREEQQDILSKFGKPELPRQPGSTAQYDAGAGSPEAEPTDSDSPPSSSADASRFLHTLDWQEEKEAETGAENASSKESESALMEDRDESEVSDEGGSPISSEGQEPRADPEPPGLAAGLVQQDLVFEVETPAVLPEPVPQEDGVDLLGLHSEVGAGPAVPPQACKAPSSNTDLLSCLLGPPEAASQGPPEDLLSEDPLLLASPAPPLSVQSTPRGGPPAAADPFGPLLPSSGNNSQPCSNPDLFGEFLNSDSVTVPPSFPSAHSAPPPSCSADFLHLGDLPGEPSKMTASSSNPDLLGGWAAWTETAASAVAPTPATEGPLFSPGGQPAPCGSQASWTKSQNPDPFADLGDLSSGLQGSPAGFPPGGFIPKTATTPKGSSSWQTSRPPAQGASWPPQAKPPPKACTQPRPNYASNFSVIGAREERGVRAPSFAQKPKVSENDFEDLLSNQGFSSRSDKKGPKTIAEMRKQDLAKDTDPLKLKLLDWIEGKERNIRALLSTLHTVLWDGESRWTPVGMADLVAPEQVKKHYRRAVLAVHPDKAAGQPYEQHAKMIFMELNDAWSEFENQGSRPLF
UniProt P42680, sequence (whole entry, looked up): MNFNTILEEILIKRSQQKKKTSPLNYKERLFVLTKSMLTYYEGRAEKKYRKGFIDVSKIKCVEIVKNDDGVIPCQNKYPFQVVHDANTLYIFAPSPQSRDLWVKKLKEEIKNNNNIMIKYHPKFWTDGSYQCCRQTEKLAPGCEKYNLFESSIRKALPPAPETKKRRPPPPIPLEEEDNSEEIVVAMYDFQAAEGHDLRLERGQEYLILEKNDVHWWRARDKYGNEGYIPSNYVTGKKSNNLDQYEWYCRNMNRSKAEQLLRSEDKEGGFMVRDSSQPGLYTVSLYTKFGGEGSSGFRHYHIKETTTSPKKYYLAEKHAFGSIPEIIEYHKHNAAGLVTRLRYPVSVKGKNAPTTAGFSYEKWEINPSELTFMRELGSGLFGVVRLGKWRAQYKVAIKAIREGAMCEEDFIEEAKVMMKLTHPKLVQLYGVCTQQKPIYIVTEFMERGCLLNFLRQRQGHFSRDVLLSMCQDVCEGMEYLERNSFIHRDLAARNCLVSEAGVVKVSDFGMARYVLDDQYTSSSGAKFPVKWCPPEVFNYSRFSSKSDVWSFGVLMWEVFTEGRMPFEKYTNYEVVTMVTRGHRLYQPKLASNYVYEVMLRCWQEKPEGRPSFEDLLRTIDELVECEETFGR
UniProt P57078, sequence (whole entry, looked up): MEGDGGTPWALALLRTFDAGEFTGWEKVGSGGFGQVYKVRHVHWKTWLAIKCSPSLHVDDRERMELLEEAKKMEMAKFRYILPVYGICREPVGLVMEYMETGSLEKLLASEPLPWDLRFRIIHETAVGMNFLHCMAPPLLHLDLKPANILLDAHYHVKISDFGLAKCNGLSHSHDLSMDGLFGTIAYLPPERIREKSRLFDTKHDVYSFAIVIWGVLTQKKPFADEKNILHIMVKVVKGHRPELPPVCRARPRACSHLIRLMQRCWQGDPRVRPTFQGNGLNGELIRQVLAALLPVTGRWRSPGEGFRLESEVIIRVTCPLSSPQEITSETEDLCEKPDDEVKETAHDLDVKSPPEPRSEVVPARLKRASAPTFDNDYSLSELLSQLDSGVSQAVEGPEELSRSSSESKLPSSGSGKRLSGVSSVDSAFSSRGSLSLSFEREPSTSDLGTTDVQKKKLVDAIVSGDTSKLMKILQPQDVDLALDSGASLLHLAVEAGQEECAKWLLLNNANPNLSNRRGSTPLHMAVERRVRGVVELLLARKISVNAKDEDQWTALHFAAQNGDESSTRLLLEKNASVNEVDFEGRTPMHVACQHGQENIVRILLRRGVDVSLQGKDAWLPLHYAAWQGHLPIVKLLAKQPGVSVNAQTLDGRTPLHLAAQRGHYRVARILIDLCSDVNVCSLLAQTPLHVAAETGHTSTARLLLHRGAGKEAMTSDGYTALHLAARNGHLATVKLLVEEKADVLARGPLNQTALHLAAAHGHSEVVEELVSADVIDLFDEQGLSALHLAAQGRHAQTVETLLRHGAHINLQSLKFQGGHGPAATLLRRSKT
UniProt P49760, sequence (whole entry, looked up): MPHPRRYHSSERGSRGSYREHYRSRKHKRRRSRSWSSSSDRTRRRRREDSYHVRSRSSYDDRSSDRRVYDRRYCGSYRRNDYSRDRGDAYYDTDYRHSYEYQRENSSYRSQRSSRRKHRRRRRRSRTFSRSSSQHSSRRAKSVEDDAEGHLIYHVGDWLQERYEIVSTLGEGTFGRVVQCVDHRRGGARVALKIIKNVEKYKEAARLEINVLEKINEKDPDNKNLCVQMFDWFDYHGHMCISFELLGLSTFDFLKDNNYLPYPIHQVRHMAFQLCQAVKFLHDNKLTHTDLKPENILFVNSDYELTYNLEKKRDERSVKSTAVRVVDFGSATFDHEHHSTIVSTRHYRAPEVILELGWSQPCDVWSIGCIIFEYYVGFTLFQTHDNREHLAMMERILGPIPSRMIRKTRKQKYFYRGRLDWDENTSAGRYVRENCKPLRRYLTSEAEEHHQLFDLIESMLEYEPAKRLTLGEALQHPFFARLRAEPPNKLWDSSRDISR
UniProt P17948, sequence (whole entry, looked up): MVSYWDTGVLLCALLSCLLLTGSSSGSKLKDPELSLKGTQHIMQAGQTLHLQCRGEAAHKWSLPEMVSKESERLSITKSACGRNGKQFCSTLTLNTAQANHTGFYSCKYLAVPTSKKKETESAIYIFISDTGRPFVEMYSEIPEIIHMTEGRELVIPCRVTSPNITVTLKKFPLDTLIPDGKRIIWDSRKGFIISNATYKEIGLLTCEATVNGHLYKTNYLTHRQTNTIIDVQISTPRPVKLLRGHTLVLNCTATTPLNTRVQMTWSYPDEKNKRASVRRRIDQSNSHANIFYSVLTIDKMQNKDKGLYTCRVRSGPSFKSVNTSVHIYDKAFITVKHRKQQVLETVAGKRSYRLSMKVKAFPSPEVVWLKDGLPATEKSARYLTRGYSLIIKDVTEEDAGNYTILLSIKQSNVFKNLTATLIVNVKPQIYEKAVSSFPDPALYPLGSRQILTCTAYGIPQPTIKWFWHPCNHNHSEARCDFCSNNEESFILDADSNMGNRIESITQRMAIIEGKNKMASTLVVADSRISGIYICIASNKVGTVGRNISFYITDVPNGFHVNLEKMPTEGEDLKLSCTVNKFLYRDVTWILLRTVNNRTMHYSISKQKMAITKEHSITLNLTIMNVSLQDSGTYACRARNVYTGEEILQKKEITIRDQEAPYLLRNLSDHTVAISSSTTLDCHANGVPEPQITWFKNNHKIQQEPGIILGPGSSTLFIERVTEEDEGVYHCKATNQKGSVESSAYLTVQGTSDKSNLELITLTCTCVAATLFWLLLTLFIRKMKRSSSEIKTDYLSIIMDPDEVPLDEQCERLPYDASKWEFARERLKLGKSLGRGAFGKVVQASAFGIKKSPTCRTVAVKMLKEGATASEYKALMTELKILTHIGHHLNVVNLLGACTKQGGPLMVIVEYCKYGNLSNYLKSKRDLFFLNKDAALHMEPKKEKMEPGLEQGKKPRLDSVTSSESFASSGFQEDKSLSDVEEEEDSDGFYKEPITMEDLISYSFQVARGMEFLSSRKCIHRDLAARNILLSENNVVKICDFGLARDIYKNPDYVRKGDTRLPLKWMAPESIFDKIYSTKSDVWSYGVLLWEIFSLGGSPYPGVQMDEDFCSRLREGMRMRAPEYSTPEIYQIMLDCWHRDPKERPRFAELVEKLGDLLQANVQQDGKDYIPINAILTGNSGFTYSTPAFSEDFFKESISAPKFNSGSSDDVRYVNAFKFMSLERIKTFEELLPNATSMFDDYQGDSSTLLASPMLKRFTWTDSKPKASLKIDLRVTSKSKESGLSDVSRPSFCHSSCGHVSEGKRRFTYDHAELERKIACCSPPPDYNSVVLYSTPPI
UniProt Q14012, sequence (whole entry, looked up): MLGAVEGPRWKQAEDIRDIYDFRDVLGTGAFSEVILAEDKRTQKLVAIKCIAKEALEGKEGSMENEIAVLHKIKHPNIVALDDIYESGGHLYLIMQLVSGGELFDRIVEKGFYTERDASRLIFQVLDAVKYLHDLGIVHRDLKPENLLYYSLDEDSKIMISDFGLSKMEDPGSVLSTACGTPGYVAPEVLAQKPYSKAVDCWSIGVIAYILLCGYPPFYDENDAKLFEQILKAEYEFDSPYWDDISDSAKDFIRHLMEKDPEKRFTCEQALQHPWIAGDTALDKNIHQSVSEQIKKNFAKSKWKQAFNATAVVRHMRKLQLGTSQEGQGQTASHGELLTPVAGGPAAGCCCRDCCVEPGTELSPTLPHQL

Block 1 — read-out: enzyme activity; action: inhibitor; concentration: 0.5 µM; baseline: control
Structure (SMILES): CC(C)(C)c1nc2c3cc[nH]c(=O)c3c3cc(F)ccc3c2[nH]1
target	remaining activity
Casein kinase I isoform epsilon (CSNK1E, Homo sapiens, UniProt P49674)	85.6%
Cyclin-dependent kinase 2, with cyclin E (CDK2, Homo sapiens, UniProt P24941)	87.5%
Calcium/calmodulin-dependent protein kinase kinase 1 (CAMKK1, Homo sapiens, UniProt Q8N5S9)	81.4%
Tyrosine-protein kinase receptor TYRO3 (TYRO3, Homo sapiens, UniProt Q06418)	90.3%
Muscle, skeletal receptor tyrosine-protein kinase (MUSK, Homo sapiens, UniProt O15146)	81.7%
Vascular endothelial growth factor receptor 1 (FLT1, Homo sapiens, UniProt P17948)	92.3%
Mitogen-activated protein kinase kinase kinase 20 (MAP3K20, Homo sapiens, UniProt Q9NYL2)	78.1%
Tyrosine-protein kinase Tec (TEC, Homo sapiens, UniProt P42680)	106%
Serine/threonine-protein kinase Sgk2 (SGK2, Homo sapiens, UniProt Q9HBY8)	84.4%
Insulin-like growth factor 1 receptor (IGF1R, Homo sapiens, UniProt P08069)	91.3%
Serine/threonine-protein kinase SIK2 (SIK2, Homo sapiens, UniProt Q9H0K1)	60.2%
Tyrosine-protein kinase JAK1 (JAK1, Homo sapiens, UniProt P23458)	2.54%
Serine/threonine-protein kinase PAK 6 (PAK6, Homo sapiens, UniProt Q9NQU5)	90.9%
Protein kinase C theta type (PRKCQ, Homo sapiens, UniProt Q04759)	66.8%
Casein kinase I isoform delta (CSNK1D, Homo sapiens, UniProt P48730)	89.1%
Calcium/calmodulin-dependent protein kinase type 1 (CAMK1, Homo sapiens, UniProt Q14012)	79.3%
Dual specificity protein kinase CLK2 (CLK2, Homo sapiens, UniProt P49760)	93.9%
Dual specificity protein kinase CLK1 (CLK1, Homo sapiens, UniProt P49759)	81.6%
SRSF protein kinase 1 (SRPK1, Homo sapiens, UniProt Q96SB4)	115%
Ephrin type-A receptor 2 (EPHA2, Homo sapiens, UniProt P29317)	98.5%
Serine/threonine-protein kinase PAK 1 (PAK1, Homo sapiens, UniProt Q13153)	82.1%

Block 2 — method: competition with immobilised ligand; concentration: 1 µM
Structure (SMILES): CCc1ccccc1C(=O)Nc1n[nH]c2c(C)c(F)c(C3C(C#N)=C(C)N(C)C(C)=C3C#N)cc12
target	assay	remaining binding
Serine/threonine-protein kinase N2 (PKN2, Homo sapiens, UniProt Q16513)	cell-free assay	100%
Serine/threonine-protein kinase TNNI3K (TNNI3K, Homo sapiens, UniProt Q59H18)	cell-free assay	87%
Vascular endothelial growth factor receptor 2 (KDR, Homo sapiens, UniProt P35968)	cell-free assay	88%
Tyrosine-protein kinase ABL1, phosphorylated (ABL1, Homo sapiens, UniProt P00519)	cell-free assay	88%
Calcium/calmodulin-dependent protein kinase type II subunit beta (CAMK2B, Homo sapiens, UniProt Q13554)	cell-free assay	73%
Discoidin domain-containing receptor 2 (DDR2, Homo sapiens, UniProt Q16832)	cell-free assay	100%
Cyclin-dependent kinase 2 (CDK2, Homo sapiens, UniProt P24941)	cell-free assay	100%
Cyclin-G-associated kinase (GAK, Homo sapiens, UniProt O14976)	cell-free assay	82%
Tyrosine-protein kinase Blk (BLK, Homo sapiens, UniProt P51451)	cell-free assay	100%
Receptor tyrosine-protein kinase erbB-4 (ERBB4, Homo sapiens, UniProt Q15303)	cell-free assay	84%
Receptor-interacting serine/threonine-protein kinase 4 (RIPK4, Homo sapiens, UniProt P57078)	cell-free assay	92%
Interferon-induced, double-stranded RNA-activated protein kinase (EIF2AK2, Homo sapiens, UniProt P19525)	cell-free assay	100%
Cyclin-dependent kinase-like 2 (CDKL2, Homo sapiens, UniProt Q92772)	binding	94%

Block 3 — cell line: A-375; concentration: 100 µM; time: 36 h
Compound	viability
N[C@H]1CONC1=O	118%
CN1CCN(c2c(F)cc3c(=O)c(C(=O)O)cn4c3c2OCN4C)CC1	99.1%
CCCNC(C)C(=O)Nc1c(C)csc1C(=O)OC (stereo not drawn)	108%
CC(C(=O)O)c1cccc(Oc2ccccc2)c1 (stereo not drawn)	68%
CCCCOc1ccc(C(=O)CCN2CCCCC2)cc1	2.25%
CCOc1nc2cccc(C(=O)OCc3oc(=O)oc3C)c2n1Cc1ccc(-c2ccccc2-c2noc(=O)[nH]2)cc1	102%
CC(=O)/N=c1/sc(S(N)(=O)=O)nn1C	108%

Mixed results
Compound	assay	setting	measurement	value
CC(C)C[C@@H]1NC(=O)[C@H](C(C)C)NC(=O)[C@H](CC(C)C)NC(=O)[C@@H](CC(C)C)NC(=O)[C@H](CC(C)C)NC(=O)[C@@H](C)NC(=O)[C@@H](CC(C)C)NC1=O	logD(dd/w) and ALogP	JT method	lipophilic permeability efficiency	2.64

A few entries again (block 3):
Compound	viability
CN1CCN(c2c(F)cc3c(=O)c(C(=O)O)cn4c3c2OCN4C)CC1	99.1%
CCCNC(C)C(=O)Nc1c(C)csc1C(=O)OC (stereo not drawn)	108%
CC(C(=O)O)c1cccc(Oc2ccccc2)c1 (stereo not drawn)	68%
CCCCOc1ccc(C(=O)CCN2CCCCC2)cc1	2.25%
CCOc1nc2cccc(C(=O)OCc3oc(=O)oc3C)c2n1Cc1ccc(-c2ccccc2-c2noc(=O)[nH]2)cc1	102%
